Experimental data pooled from the literature.
Lines come from different studies, so protocols differ.
RPS6KA6 N-terminal kinase domain: Ribosomal protein S6 kinase alpha-6, N-terminal kinase domain (RPS6KA6, Homo sapiens, UniProt Q9UK32)
Sequence of UniProt Q9UK32 (whole entry, looked up): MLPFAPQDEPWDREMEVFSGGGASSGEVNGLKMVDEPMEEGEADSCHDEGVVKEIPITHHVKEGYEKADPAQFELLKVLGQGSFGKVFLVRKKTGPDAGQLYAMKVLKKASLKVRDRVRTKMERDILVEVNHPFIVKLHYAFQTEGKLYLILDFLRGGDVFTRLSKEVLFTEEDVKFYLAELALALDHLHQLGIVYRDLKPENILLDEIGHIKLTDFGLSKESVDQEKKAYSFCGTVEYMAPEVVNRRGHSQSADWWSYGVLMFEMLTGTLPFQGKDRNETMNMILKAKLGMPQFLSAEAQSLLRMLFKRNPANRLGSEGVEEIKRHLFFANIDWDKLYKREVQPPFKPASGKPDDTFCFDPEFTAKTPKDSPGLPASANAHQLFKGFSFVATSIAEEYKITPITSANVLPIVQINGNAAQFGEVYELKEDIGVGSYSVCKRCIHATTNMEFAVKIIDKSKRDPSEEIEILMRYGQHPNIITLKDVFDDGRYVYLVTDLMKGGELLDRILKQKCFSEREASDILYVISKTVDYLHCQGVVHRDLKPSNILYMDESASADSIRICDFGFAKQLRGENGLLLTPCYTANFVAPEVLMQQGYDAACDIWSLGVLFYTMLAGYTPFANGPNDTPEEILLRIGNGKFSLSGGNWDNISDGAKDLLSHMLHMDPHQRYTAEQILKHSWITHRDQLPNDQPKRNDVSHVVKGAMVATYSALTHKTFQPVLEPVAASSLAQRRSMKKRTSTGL
RPS6KA6: Ribosomal protein S6 kinase alpha-6 (RPS6KA6, Homo sapiens, UniProt Q9UK32)

C[C@@H](c1ccc(-n2cnc3c(N)ncnc32)cc1)N1CCc2nn(C)c(Cc3ccccc3)c2C1=O — remaining binding (RPS6KA6 N-terminal kinase domain; KINOMEscan; 0.1 µM; relative to: DMSO control): 50%
Cc1cc(Nc2cc(N3CCN(C)CC3)nc(Sc3ccc(NC(=O)C4CC4)cc3)n2)[nH]n1 — remaining activity (RPS6KA6; kinase activity, KinaseProfiler; 0.03 µM, species human; relative to: control): 103%
CCCOc1ccc(OC)c(F)c1C(=O)c1ccc(C(=O)N[C@@H]2CNC[C@H]2NC(=O)c2ccc3[nH]ncc3c2)cc1 — remaining activity (RPS6KA6; enzyme activity; 10 µM): 16%
C=CC(=O)N1CCC(COCC(=O)N2CCN(c3nc(-c4cnc(N)nc4C(F)F)nc(N4CCOC[C@@H]4C)n3)CC2)CC1 — remaining binding (Ribosomal protein S6 kinase alpha-6, C-terminal kinase domain (RPS6KA6, Homo sapiens, UniProt Q9UK32); KINOMEscan; 1 µM; relative to: DMSO control): 84%
C=CC(=O)N1CCC(C(=O)NCC(=O)N2CCN(c3nc(-c4cnc(N)nc4C(F)F)nc(N4CCOCC4)n3)CC2)CC1 — remaining binding (RPS6KA6 N-terminal kinase domain; KINOMEscan; 1 µM): 100%
CCN(CC)c1ccc(C2=NNC(=O)CC2C)cc1[N+](=O)[O-] (centres unmarked) — remaining activity (RPS6KA6; enzyme activity, inhibitor; 10 µM; relative to: vehicle): 82%
COc1cc(F)ccc1-c1ncnc(Nc2cccc(C[S@](C)(=N)=O)c2)n1 — remaining activity (RPS6KA6; kinase activity; 10 µM, with: 10 µM ATP): 106%
CNc1ncc2c(/C=C/C(=O)N3CCC(OC)CC3)nn(Cc3cccc(C(F)(F)F)c3)c2n1 — remaining activity (RPS6KA6; kinase activity, inhibitor; 1 µM; relative to: untreated control): 93%
